Published values collected from several papers.
± gives the spread as reported. Converted amounts (≈) assume the structure as drawn.

NC(=O)CC[C@@H]1NC(=O)[C@H](Cc2ccccc2)NC(=O)[C@H](Cc2ccc(O)cc2)NC(=O)CCSSC[C@@H](C(=O)N2CCC[C@H]2C(=O)N[C@H](CCCN=C(N)N)C(=O)NCC(N)=O)NC(=O)[C@H](CC(N)=O)NC1=O  bench top stability (UPLC-MS/MS; human plasma; 3.05 pg/mL, 6 h, room temperature): 95.7%
CCCC[C@H](NC(C)=O)C(=O)N[C@H]1CCC(=O)NC[C@@H](C(=O)N[C@@H](Cc2c[nH]c3ccccc23)C(N)=O)NC(=O)[C@H](CCCNC(=N)N)NC(=O)[C@@H](Cc2ccccc2)NC(=O)[C@H](Cc2c[nH]cn2)NC1=O  median Cmax (healthy volunteers, both sexes, plasma; subcutaneous, 1.0 mg once daily, day 1): 18.5 ng/mL
COc1cc(OC)c(/C=C/S(=O)(=O)Cc2ccc(OC)c(NCC(=O)O)c2)c(OC)c1  AUC(0-inf) (cancer patients, phase I, plasma; oral, 560 mg twice daily, day 1 cycle 1): 9320 ± 6920 ng·h/mL
Cn1c(-c2ccc(C(N)=O)cc2F)nnc1C(C)(C)Oc1c(F)cc(Cl)cc1F  AUC(0-inf) mean (young Japanese subjects, plasma; oral, 20 mg single dose, day 1): 2150 ng·h/mL
COc1cc(F)c(F)c(Nc2ccc(I)cc2F)c1NS(=O)(=O)C1(C[C@H](O)CO)CC1  AUC(0-8 h) (human patients, plasma; oral, dose not given, cycle 1 day 15, together with: copanlisib): 4920 ng·h/mL
COc1cc(/C=C/c2ccc(N)cc2)cc(OC)c1  concentration (rat, serum; oral, 40 mg/kg daily for three days, 24 h, total): 640 ± 34 ng/mL
C=CC(N)CCC(=O)O (stereo not drawn)  Tmax (median) (male Sprague-Dawley rat, plasma; oral, 1.0 mg/kg, formulation 2, together with: infant formula 1500 mg/kg): 0.67 h
N=S1(=O)CCC(NC(=O)c2n[nH]cc2NC(=O)c2c(Cl)cccc2Cl)CC1 (stereo not drawn)  thermodynamic solubility (shake flask; water; pH 6.5): 52 µg/mL (≈ 121 µM)
COc1cc(C)c(/C=C/C(C)=C/C=C/C(C)=C/C(=O)O)c(C)c1C  thermodynamic solubility (shake-flask; polysorbate 80; 37 °C): 3.09 ± 0.03 mg/g
O=C(Nc1cccc(C(F)(F)F)c1)NC1CCN(Cc2ccccc2)CC1  intrinsic clearance (CD-1 female mouse, liver microsomes; 0.8 µM): 90 mL/min/kg
CC(C)(C)NC(=O)[C@@H]1C[C@@H]2CCCC[C@@H]2CN1C[C@@H](O)[C@H](Cc1ccccc1)NC(=O)[C@H](CC(N)=O)NC(=O)c1ccc2ccccc2n1  thermodynamic solubility (shake-flask; soybean oil; 37 °C): 2.34 ± 0.09 mg/g
Cc1nc2cccc(OCC(C)(C)C(=O)NC(C)C)c2c(N)c1C(=O)O  Cmax (male Sprague-Dawley rat, plasma; dietary, 100 mg/kg/day, day 90): 231 ng/mL
OCCN(CCO)c1nc(N2CCCCC2)c2nc(N(CCO)CCO)nc(N3CCCCC3)c2n1  apparent oral clearance (mouse, plasma; oral, together with: vincristine co-treatment; baseline: without vincristine): no effect
CCN(CC)CCNC(=O)c1c(C)[nH]c(/C=C2\C(=O)Nc3ccc(F)cc32)c1C  Cmin,ss (human; oral, 50 mg/day, day 15-29, NNRTI group): 42.1 ± 3.1 ng/mL
COc1cc(/C=C/C(=O)CC(=O)/C=C/c2ccc(O)c(OC)c2)ccc1O  brain uptake ratio (I-125 label; C57BL/6J mouse, hippocampus; intranasal vs intraperitoneal, 10 µg/mouse IN, 100 µg/mouse IP, 12 h; baseline: intranasal over intraperitoneal): 6.19
OCCN(CCO)c1nc(N2CCCCC2)c2nc(N(CCO)CCO)nc(N3CCCCC3)c2n1  thermodynamic solubility (shake-flask; PEG400; 37 °C): 16.9 ± 0.8 mg/g
CCc1cc2c(cc1N1CCC(N3CCOCC3)CC1)C(C)(C)c1[nH]c3cc(C#N)ccc3c1C2=O  adverse events count (healthy humans; oral, 300 mg single dose): 2
CCCOc1ccc([C@H]2CNC(=O)N2c2ccc3[nH]cnc3c2)cc1  AUC(0-inf) (human, plasma; oral, 1800 mg, single dose, fasted, healthy volunteers): 32200 ng·h/mL
O=C(CCCCCCC(=O)Nc1ccccc1)NO  AUC(0-8 h) (LC-MS/MS; human, serum; oral, 200 mg, day 1, first dose mean): 632 ng·h/mL
Cn1cc(-c2cn3nccc3c(-c3cnn([C@]4(CC#N)C[C@@H](C#N)C4)c3)n2)cn1  dose-normalized AUC(0-tau) (healthy human, plasma; 200 mg twice daily, day 10, multiple dose, fed, geometric mean): 10 ng·h/mL/mg
CNCc1ccc(-c2[nH]c3cc(F)cc4c3c2CCNC4=O)cc1  half-life (human patients, plasma; oral, 160 mg once daily, day 15, steady state, arithmetic mean): 33.6 h
NS(=O)(=O)c1ccc(NC(=O)/C=C\c2ccc(O)c(O)c2)cc1  log P (n-octanol/PBS; pH 7.4): 0.0938
CCCCCCCCC[C@H](O)CC(=O)CCc1ccc(O)c(OC)c1  recovery (rat, small intestine site 4 contents; oral, dose not given, 2 h, β-glucuronidase treated; baseline: ingested amount): 9.92%
Cc1cc(Nc2cc3ncccc3c(N[C@@H]3C[C@H]4CC[C@@H](C3)N4CCC#N)n2)n[nH]1  Cmax (Sprague-Dawley rat, female, plasma; oral, 1000 mg/kg/day, last day of 13 weeks): 278 ng/mL
Cc1cc(Oc2nccc3occc23)ccc1-c1c(C)c(=O)[nH]c(=O)n1C  duration of stable levels (Swiss albino male mice, brain and plasma; intraperitoneal, 50 mg/kg): ≥ 4 h
O=C(O)CCCCC(=O)O  total plasma concentration ratio (human hemodialysis patients, plasma; pre-treatment; baseline: hemodialysis over normal subjects): 13
CC(C)[C@H](NC(=O)[C@@H]1CCCN1C(=O)[C@H](CCCNC(=N)N)NC(=O)[C@H](CS)NC(=O)[C@H](Cc1c[nH]c2ccccc12)NC(=O)[C@H](CCCNC(=N)N)NC(=O)[C@@H](Cc1ccccc1)NC(=O)[C@H](Cc1c[nH]cn1)NC(=O)[C@H](CCC(=O)O)NC(=O)[C@H](CS)NC(=O)[C@H](CS)NC(=O)[C@H](CCCCN)NC(=O)[C@@H]1CC(=O)N[C@@H](CCCNC(=N)N)C(=O)N[C@@H](C(C)C)C(=O)N[C@@H](CC(=O)O)C(=O)N[C@H](Cc2ccc(O)cc2)C(=O)N1)C(N)=O [technetium-99m labelled]  tissue uptake (C57 mouse, female, B16/F1 melanoma, bone; intravenous, 2 h, together with: NDP-MSH 10 µg co-injected): 0.46 ± 0.1 %ID/g
COc1cc(CO)c(-c2ccc3c(c2O)[C@@H](C)N[C@H](C)C3)c2cccc(O)c12  microsomal CLint (metabolic stability; male CD-1 mouse, liver microsomes; 1 µM): > 250 µL/min/mg
des-acyl ghrelin (human)  tissue/serum ratio (Ghsr knockout mice, midbrain; intravenous, dose not given, 10 min, vascular space corrected): 5.82 µL/g
CC(C)=CCc1c(O)cc2oc3c(CC=C(C)C)c(O)c(O)c(CC=C(C)C)c3c(=O)c2c1O  free tumour concentration (Balb/c nu/nu mice, HT-29 xenograft, tumour tissue; oral, 901 mg/kg xanthones in diet, 2 weeks after implantation): 90 ± 30 ng/g
C[C@@H]1O[C@@H](Oc2c(-c3ccc(O)c(O)c3)oc3cc(O)cc(O)c3c2=O)[C@H](O)[C@H](O)[C@H]1O  Papp A→B (mass spectrometry; Caco-2; 40 µM, 6 h): 5.6 ×10⁻⁶ cm/s
C[C@H](CS)C(=O)N1CCC[C@H]1C(=O)O  QTc change (male Hartley guinea pig, anaesthetized; intravenous infusion, 3 mg/kg, 10 min infusion; baseline: baseline): 0 ± 0.9%
CC[C@H](C)[C@@H]1NC(=O)[C@H](Cc2ccc(O)cc2)NC(=O)[C@@H](N)CSSC[C@@H](C(=O)N2CCC[C@H]2C(=O)N[C@@H](CC(C)C)C(=O)NCC(N)=O)NC(=O)[C@H](CC(N)=O)NC(=O)[C@H](CCC(N)=O)NC1=O  Cmax (microdialysis, radioimmunoassay; knock-out male mice lacking compound, amygdala extracellular fluid; intranasal, 12 µg): 3.84 pg/sample
CN1CCN(c2ccc(Nc3ncc4cc(C#N)c(=O)n(C5CCCC5)c4n3)cc2)CC1  Vss (NIH Swiss nude mice, intracerebral U87 tumour, plasma; intravenous, 25 mg/kg, together with: gefitinib 200 mg/kg oral 1 h before): 7.08 L/kg
C[C@H](Oc1ccc(-c2nc(-c3ccc4[nH]cnc4c3)no2)cc1C(F)(F)F)C(F)(F)F  plasma concentration (cynomolgus monkey, aneurysm model, plasma; 0.1 mg/kg once daily, 2 h post-dose, 4 weeks dosing): 17 ± 4.7 nM
CCOc1nc2cccc(C(=O)OC(C)OC(=O)OC3CCCCC3)c2n1Cc1ccc(-c2ccccc2-c2nnn[nH]2)cc1 (stereo not drawn)  thermodynamic solubility (shake-flask; PEG400; 37 °C): 25.9 ± 0.86 mg/g
C[C@](N)(Cc1ccc(O)c(O)c1)C(=O)O  solubility (supercritical carbon dioxide; 5 h, 343 K, 15 MPa, density 507.5 kg/m3): 49.7 µg/mL (≈ 235 µM)
CCC(C)n1ncn(-c2ccc(N3CCN(c4ccc(OCC5COC(Cn6cncn6)(c6ccc(Cl)cc6Cl)O5)cc4)CC3)cc2)c1=O (stereo not drawn)  thermodynamic solubility (shake-flask; Captex 355; 37 °C): 0.18 mg/g
O=C(O)C[C@H](O)C[C@H](O)/C=C/c1c(C2CC2)nc2ccccc2c1-c1ccc(F)cc1  AUC(0-27 h) (male Sprague Dawley rat, NASH, plasma; oral, 2.5 mg/kg, geometric mean, together with: silymarin 500 mg/kg oral): 15.9 µM·h
Cc1cc(NC(=O)c2cc(C(F)(F)F)cc(C(F)(F)F)c2)ccc1NS(=O)(=O)C(F)(F)F  log P (slow-stir method; 1-octanol/water; 48 h, room temperature): 2.9 ± 0.199
CS(=O)(=O)OC[C@H](O)[C@@H]1CO1  concentration (Wistar rat, male, red blood cell lysate; intraperitoneal, 500 mg/kg of treosulfan, 4 h): 4500 nM
Cc1cc(-c2cc(OC(=O)c3ccccc3)ccc2Cl)cc2nnc(Nc3ccc(OCCN4CCCC4)cc3)nc12  tissue concentration (Dutch Belted rabbit, conjunctiva; topical ocular, 40 µL drop of 0.6%, 2 h): 609 nM
Clc1ccccc1C(c1ccccc1)(c1ccccc1)n1ccnc1  thermodynamic solubility (shake-flask; Captex 355; 37 °C): 18.8 ± 0.59 mg/g
O=C1N=C(N2CCOCC2)CN1c1ccc(Cl)cc1  apparent volume of distribution (Vz/F) (beagle dog, both sexes; oral, 30 mg/kg, day 0, tablets, single dose): 0.704 L/kg
CC(C)NC[C@@H](C(=O)N1CCN(c2ncnc3c2[C@H](C)C[C@H]3O)CC1)c1ccc(Cl)cc1  AUC(0-72 h) (human, Healthy hepatic function, plasma; oral, 100 mg single dose, NCI classification, geometric mean): 263 ng·h/mL
CC(C)(Oc1ccc(CCNC(=O)c2ccc(Cl)cc2)cc1)C(=O)O  thermodynamic solubility (shake-flask; polysorbate 80; 37 °C): 31.8 ± 1.2 mg/g
[2H]C([2H])([2H])Oc1cc2c(cc1OC([2H])([2H])[2H])C1CC(=O)C(CC(C)C)CN1CC2 (stereo not drawn)  dose-normalized Cmax (measured: deuterated α-HTBZ; healthy human volunteers, plasma; oral, 12 mg single dose, standard meal): 1.7 ng/mL
CC(C)=CCC[C@](C)(O[C@@H]1O[C@H](CO)[C@@H](O)[C@H](O)[C@H]1O)[C@H]1CC[C@]2(C)[C@@H]1[C@H](O)C[C@@H]1[C@@]3(C)CC[C@H](O[C@@H]4O[C@H](CO)[C@@H](O)[C@H](O)[C@H]4O[C@@H]4O[C@H](CO)[C@@H](O)[C@H](O)[C@H]4O)C(C)(C)[C@@H]3CC[C@]12C  AUC(0-inf) (LC-MS/MS; healthy male volunteers, serum; oral, 3 g red ginseng): 6.93 ± 11.4 ng·h/mL
Cc1c(Cl)cccc1Nc1ccccc1C(=O)O  thermodynamic solubility (shake-flask; polysorbate 80; 37 °C): 57.3 ± 7.05 mg/g
CC#CC(=O)N1CCC[C@H]1c1nc(-c2ccc(C(=O)Nc3ccccn3)cc2)c2c(N)nccn12  apparent volume of distribution (Vz/F) (Japanese patients, plasma; oral, 100 mg twice daily, day 8, fasting, multiple dose, arithmetic mean): 220 ± 107 L
CCCC[C@@H]1NC(=O)[C@@H](NC(=O)[C@H](CCC(=O)O)NC(=O)CNC(=O)CN2CCN(CC(=O)O)CCN(CC(=O)O)CCN(CC(=O)O)CC2)CCCCNC(=O)C[C@@H](C(N)=O)NC(=O)[C@H](C(C)C)NC(=O)[C@@H]2CCCN2C(=O)[C@H](CCCNC(=N)N)NC(=O)CNC(=O)[C@H](Cc2c[nH]c3ccccc23)NC(=O)[C@H](CCCNC(=N)N)NC(=O)[C@@H](Cc2ccccc2)NC(=O)[C@H](Cc2c[nH]cn2)NC(=O)[C@H](CCC(=O)O)NC1=O [indium-111 labelled]  tissue uptake (normal C57 mice, stomach; intravenous, 0.037 MBq, 4 h): 0.08 ± 0.06 %ID/g
N[C@@H](CC(=O)N1CCn2c(nnc2C(F)(F)F)C1)Cc1cc(F)c(F)cc1F  AUC(0-2 h) (healthy Korean subjects, plasma; oral, 100 mg single dose, ABCB1 G2677T/A AT+GT): 478 ± 192 ng·h/mL
COc1cc(N)c(Cl)cc1C(=O)NC1CCN(CCCOc2ccc(F)cc2)CC1OC (stereo not drawn)  QTc change (male Hartley guinea pig, anaesthetized; intravenous infusion, 0.1 mg/kg, 10 min infusion; baseline: baseline): 8.5 ± 3.6%
C[C@]12CC[C@@H]3c4ccc(O)cc4CC[C@H]3[C@@H]1C[C@@H](O)[C@@H]2O  maximum serum concentration (GC-MS; breast cancer women on NSAI, serum; vaginal, 0.03 mg daily, 4 h, day 28): 0.0377 ng/mL

Repeated from above:
Cc1c(Cl)cccc1Nc1ccccc1C(=O)O  thermodynamic solubility (shake-flask; polysorbate 80; 37 °C): 57.3 ± 7.05 mg/g
C=CC(N)CCC(=O)O (stereo not drawn)  Tmax (median) (male Sprague-Dawley rat, plasma; oral, 1.0 mg/kg, formulation 2, together with: infant formula 1500 mg/kg): 0.67 h
des-acyl ghrelin (human)  tissue/serum ratio (Ghsr knockout mice, midbrain; intravenous, dose not given, 10 min, vascular space corrected): 5.82 µL/g
N=S1(=O)CCC(NC(=O)c2n[nH]cc2NC(=O)c2c(Cl)cccc2Cl)CC1 (stereo not drawn)  thermodynamic solubility (shake flask; water; pH 6.5): 52 µg/mL (≈ 121 µM)
